Results pooled from the literature.
Numbered parts are unrelated; each lists some results of a single study.

Series 1
Target: Interferon regulatory factor 3, full length, phosphomimetic (IRF3, Homo sapiens, UniProt Q14653, residues 1-427, S386D/S396D/S398D/S402D/T404D/S405D)
Technique: protein-binding microarray
Form: double-stranded DNA, one strand shown
Medium: in vitro
Concentration: 2540 nM top
Notes: 60-bp whole probe
Added: salmon DNA 0.4 mg/ml
Baseline: random background probes
Reading: higher = stronger binding
Constant ends, left off below: GCCTAGCAC … GTCTTGATTCGCTTGACGCTGCTG
Target sequence (chain): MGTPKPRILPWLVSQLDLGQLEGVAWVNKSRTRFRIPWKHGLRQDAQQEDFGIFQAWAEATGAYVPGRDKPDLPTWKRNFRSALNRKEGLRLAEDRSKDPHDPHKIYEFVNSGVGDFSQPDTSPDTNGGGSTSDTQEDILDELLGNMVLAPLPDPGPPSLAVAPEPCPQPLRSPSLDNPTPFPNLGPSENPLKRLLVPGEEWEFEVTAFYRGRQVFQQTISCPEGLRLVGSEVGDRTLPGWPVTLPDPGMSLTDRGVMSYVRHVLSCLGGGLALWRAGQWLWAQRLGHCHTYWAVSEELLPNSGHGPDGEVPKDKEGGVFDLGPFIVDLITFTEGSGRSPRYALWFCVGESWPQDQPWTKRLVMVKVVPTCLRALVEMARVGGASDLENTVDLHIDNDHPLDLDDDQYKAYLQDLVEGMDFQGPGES
Strand | fitted relative affinity
TGTGGCTTAGCTGTCACCTCGTGCTAG | -0.979 z-score
CACCATCTAGTTCTGCTTTGGTGCTAG | 0.709 z-score
GACGGTATCGACTTTCGGAACGTGCTA | 2.5 z-score
GACGCTATCCTTCTCCTGACGTGCTAG | 4.26 z-score
GACGATTTCAGTTTTGAGACGTGCTAG | 3.08 z-score
TTAGATATCGGATATCGATTAGTGCTA | 0.768 z-score
CACGGTCTCGGACTGGGGACGTGCTAG | -0.126 z-score
TTAGGACTGGACACTGGGTTAGTGCTA | -0.839 z-score
TTCGGTATCGGTATCGGTTAGTGCTAG | 5.71 z-score
TTAGGTATCGGCTATCGGTTAGTGCTA | 0.425 z-score
GACGGTATCGGTATCGTGACGTGCTAG | 4.14 z-score
TACGGTTTCGGTCTCGGGACGTGCTAG | 8.13 z-score
TTAGGACTGGGGTTTCGGGTAGTGCTA | 0.452 z-score
TTAGATCTCAGTATCTATTAGTGCTAG | 0.559 z-score
GACGGTACCGGTATCGGGACGTGCTAG | 2.27 z-score
TCCTTCCACCATCTGATCAGGTGCTAG | 0.998 z-score
GACGGTCTTGGTTTCGGGACGTGCTAG | 2.44 z-score
GACGAACTGGGGTTTCGAGCCGTGCTA | -0.299 z-score
ATAGATTTCGGGACTGGATTAGTGCTA | 1.44 z-score

Series 2
Target: RING finger protein unkempt homolog, zinc fingers 1-6, GST-SBP tag (UNK, Homo sapiens, UniProt Q9C0B0, residues 30-357)
Chain of UniProt Q9C0B0 (30-357, looked up): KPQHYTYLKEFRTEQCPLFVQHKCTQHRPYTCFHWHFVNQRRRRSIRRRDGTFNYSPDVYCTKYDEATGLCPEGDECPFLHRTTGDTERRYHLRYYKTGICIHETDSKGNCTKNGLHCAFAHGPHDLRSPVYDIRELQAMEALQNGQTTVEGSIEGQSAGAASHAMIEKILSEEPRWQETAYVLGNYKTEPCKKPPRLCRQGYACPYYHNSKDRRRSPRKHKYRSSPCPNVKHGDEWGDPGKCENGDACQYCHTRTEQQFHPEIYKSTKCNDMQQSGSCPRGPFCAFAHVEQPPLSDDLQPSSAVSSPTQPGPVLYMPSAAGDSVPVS
Technique: RNA Bind-n-Seq
Form: RNA
Medium: in vitro
Concentration: not given
Notes: RNA with constant flanks, human-mouse chimeric sites, ends assumed
Baseline: input RNA pool
Reading: higher = stronger binding
Strand | bound/input enrichment [ratio]
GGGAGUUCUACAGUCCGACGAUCGAAUCCUACUCAGGCGGAUUUUGCAACACCAAGCUCACAGCAGCAGCAUCUUAGUCACAGUUAGGUAGUUUUGGGGCUCUGUGGCCAGGGUUUUAUUCAUGUGCAGGUUUGGAAAAUGUACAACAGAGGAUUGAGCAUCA | 2.37
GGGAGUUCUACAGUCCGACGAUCACUCUUGACUCUUUCCAUCCUCUUCCUUUCCCUCUUGAUCUUCAAGGCCAUGAAUCCCAAAAUAGCUGUCUUAGUGGCUAGCACCCAAACAGAGGUGGAAUAAAUCCACCCCAGUGUCUCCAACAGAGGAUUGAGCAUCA | 1.07
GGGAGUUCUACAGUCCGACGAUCCUGAAAAACACAGAUAUCAAAGUUGUUGACUUUGGAAGUGCAACGUAUGACGACGAACAUCACAGUACUUUGGUGUCUACCCGGCACUACAGAGCUCCCGAGGUCAUUUUGGCUCUAGGUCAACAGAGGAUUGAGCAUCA | 0.223
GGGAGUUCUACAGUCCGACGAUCCACAGAGGCACCACCCCCCCCUCCUCCUUUCCACACCUGCAAACUCUUUUACUUGGGCUGAAUAUUUAGUGUAAUUAACAUCGCAGCUUGAGGGCUCCUGUGGCAAAUUCCCGGAUUAAACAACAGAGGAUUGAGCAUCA | 2.24
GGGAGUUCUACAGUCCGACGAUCUCUGGUCAUACUCGUGCGUAUGGUGUUUGCUUUGUGGACACUUCACUGGGCAAGUUUUUCAUCGGCCAGUUUUCGGAUGAUCGCCAUUGUUCCAGAUUUAGGACGCUAGUGGCUCACUAUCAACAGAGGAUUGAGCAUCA | 0.214
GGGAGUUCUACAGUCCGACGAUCUACUCAACUUUCUUGCCACAUUUUGAAUUCCAAGACAUUAUUCCUCCAGAUGACUUCCUAACGAGUGAUGAAGAGCAAGAUUCCGUUUUAUUUGGAACUAUGAGAGGUCAUGUGGUUGGACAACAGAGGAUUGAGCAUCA | 0.282
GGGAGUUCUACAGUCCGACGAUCUCGGAUGCUGUGCUGGGUCACUUUCCGUAUCCAGAUCCUUCACAGUGGACAGAUGAAGAACUGGGAAUCCCUCCUGAUGAUGAAGACUGACACUGUAAACUCUCUGGACGAGUAGGAGCACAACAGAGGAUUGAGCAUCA | 0.399
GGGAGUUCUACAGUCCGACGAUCAUAAAGGCCAUGUUGAGUGGCCCAGGUCAGUUUGCUGAGAAUGAAACCAACGAGGUCAAUUUUAGAGAGAUCCCCUCACAUGUGCUAUCAAAAGUGUGCAUGUAUUUUACCUACAAGGUCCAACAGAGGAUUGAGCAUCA | 0.165
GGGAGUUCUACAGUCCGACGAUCUAAAUUAGGGCUGCCGUUUUCUGUUUCGCCCUGAGCUGCGGAAAGCCAGAAGAUUUUAUCUAGCUUAAACCAGGCUGCUGGUGUUCCCUCUUUUUUUCCACGAGGGUGUUUUUGGCUGCACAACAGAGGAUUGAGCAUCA | 0.431
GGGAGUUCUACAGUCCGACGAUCGCUGAAAAUGAAGAAGAGGCAGCUGAUGUCUGGUACAACUUGGGACACAUAGCUGUGGGAAUCGGAGAUACAAACUUGGCCCACCAAUGCUUCAGGCUGGCCCUGGUCAACAACAACCACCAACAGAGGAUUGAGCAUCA | 0.15
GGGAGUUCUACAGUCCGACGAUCGGCUGCUGGUGACUGUCCUGGAGUGGCUGGAGUUCCCGCCGGAGCGCGGCCAGACUAAUUAUAGAAAAUGCCAAGUAGGAAGUUUGUUGAGGGUGAAGUGGUCAGAGGCCGAUGGCCUGGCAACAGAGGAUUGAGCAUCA | 4.32

Series 3
Target: PABPC1L2, full length, GST fusion (mouse, UniProt A0ABA7IW68)
Technique: RNAcompete
Form: RNA
Medium: in vitro
Concentration: 20 nM
Notes: 7-mer, probes averaged, single round
Baseline: mean of 7-mers
Reading: higher = stronger binding
Target sequence (chain): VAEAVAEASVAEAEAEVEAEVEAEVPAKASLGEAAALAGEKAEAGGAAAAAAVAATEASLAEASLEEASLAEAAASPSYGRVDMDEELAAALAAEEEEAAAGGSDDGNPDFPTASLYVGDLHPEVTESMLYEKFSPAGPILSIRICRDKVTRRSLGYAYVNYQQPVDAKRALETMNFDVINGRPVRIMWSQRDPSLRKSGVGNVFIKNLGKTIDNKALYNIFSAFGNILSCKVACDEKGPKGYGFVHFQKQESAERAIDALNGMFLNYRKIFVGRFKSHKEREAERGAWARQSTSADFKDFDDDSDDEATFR
Strand | 7-mer Z-score
CCGCGCG | -0.316
ACAAGAU | 0.128
CGUGGAC | 0.133
GUGUCGU | -0.456
CAUUCAC | -0.122
AUAACAG | 0.153
UAAACUG | 0.34
GUUGGGA | 0.206
CUACGUA | -0.233
UCACGGA | -0.0917
GUGCAUC | -0.157
AAACCUU | 0.16
GAGUAUA | 0.0696
AUGGUAG | -0.0409
UGGGCCA | 0.0134
UUACUUA | -0.182
GAAUGAC | -0.113
AGGGGCG | 0.486
CGGGGUA | -0.0192
ACUGGAA | 0.329
AGGAUGA | -0.115
GGAAAUU | 0.0587
CUCAGGG | -0.0101
GUCGAUC | -0.193
GCAACGU | -0.171

Series 4
Target: RNA binding protein fox-1 homolog 2, RRM domain, GST-SBP tag (RBFOX2, Homo sapiens, UniProt O43251-10, residues 100-194)
Technique: RNA Bind-n-Seq
Form: RNA
Medium: in vitro
Concentration: 365 nM
Notes: natural RNA segment, single round, ends assumed
Baseline: no-protein control
Reading: higher = stronger binding
Residues (chain): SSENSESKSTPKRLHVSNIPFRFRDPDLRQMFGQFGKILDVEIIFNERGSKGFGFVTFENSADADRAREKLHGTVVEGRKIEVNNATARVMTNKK
Strand | RBNS enrichment (R)
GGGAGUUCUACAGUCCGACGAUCUCCCGCUGCCCACCAACACCAACACACACACACCUCUAAGCUGCUGGCCGAAGAUGUCACCAAGGCCAAAGACACAGUAUUAUGAAGGUUUGGAAACCCCUCUCCUCACCUGGAAUUCUCGGGUGCCAA | 1.02
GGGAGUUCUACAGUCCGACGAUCCACAGCCCUCAAGAGGCCCCUUUGGAUAGUGGCCCUGCACGAGACUGUGCCUUGAUCAUUUCGGUGACUGAAGAGUCUGACCCCAGAGGCCUUGGGGACCCUUUCUUCUCUGGAAUUCUCGGGUGCCAA | 0.241
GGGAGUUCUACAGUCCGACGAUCGUGUCGCUUGUAUGUUAUCGUACAGCUGACAUGUAUUUUUGUCUAUUCUUUAUUAUCUUAGUUUCAUGCUAUGUAUGUACCAUAACCAACCUAUUGCCUAUGAGAAACAUUGGAAUUCUCGGGUGCCAA | 0.509
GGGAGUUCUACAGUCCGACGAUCCAGAUUACAGAAAUGUAAGCCAGCGUAAGAGCAGUGGCUGGAUGUAAAGCGCCCAGCAGGAACCACAGGCACUCUGUGCUGUUUGUACUUGAGGUAUGUACCAUUUGUAUUGGAAUUCUCGGGUGCCAA | 0.487
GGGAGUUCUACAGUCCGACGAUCGAAGACAGCUUGCCUUUGUGUUCCUAUGAAGACUGUCCCCAACCUUGGACGUGUCCCCUUUAUUUCAUGAGCCUUUCCCCGUUUGGGUUAAGAAGCUGUUAUGCUGUGGGUGGAAUUCUCGGGUGCCAA | 2.49
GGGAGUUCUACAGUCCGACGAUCGUGGACCCAGGGACAGACAUUCAAAGGGACGCCAGCCAUCCUUAGUGACAGGGGCCCCAACUUAGCAUCCCUUCCCUUCCGUUAGGAAGGAGAUGACCGGAAGCAACCCCUGGAAUUCUCGGGUGCCAA | 0.233
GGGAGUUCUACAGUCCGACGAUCUCCCAGCGCCUGCCUGCUGGGGCUGCCUGCAUGCCUCCCCUGCACCUGGGGGUACCCGCAUCCACUUCCUUUCCCCCUUUUAACAAAAGAGAAGAACGAAUUCCAAACCAUGGAAUUCUCGGGUGCCAA | 21.1
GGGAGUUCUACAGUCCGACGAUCGAGGCAUACACUUUUUACAGAUGGACAAAAGCUCUGGAACCCUGUGGCUUCAAAUCCUUUGGGAAGGGUGACUGUUGUUUCCCCUACACACAGUGUAAGCCGGAAUGGGAUGGAAUUCUCGGGUGCCAA | 0.301
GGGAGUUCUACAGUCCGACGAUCAUUUACAUCGGAAAAGUCUCUCCCUACCUUAAUCCCCCAUUCUCUUGCUUUCAAAAUACAAGCACAGCAGUCCUUGAAUGGCUGUUGACCCAGGGCACCUAGCUGUCCCUUGGAAUUCUCGGGUGCCAA | 0.824
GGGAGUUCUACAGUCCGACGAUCUGGGCAGGAGACAGACUGGGGACUGAGCUGGGAUAUGGGGACUAGCAUCAAAGCUUUCUCCUGACAUCUCUUUCCAAGAGUCGGGGUGGCAUCUGUACCCCACCUCACCCUGGAAUUCUCGGGUGCCAA | 0.539
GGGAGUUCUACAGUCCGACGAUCUGAUUUUAGAUAAAGUAAGCCUAGGUGUUGUCAGCAGGCAGGCUGGGGAGGCCAGUGUUGUGGGCUUCCUGCUGGGACUGAGAAGGCUCACGAAGGGCAUCCGCAAUGUUUGGAAUUCUCGGGUGCCAA | 1.21
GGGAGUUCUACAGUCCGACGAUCAUUGACAAAUUAAGAUGUUAAUUUUUAUCGAUGUGAUUUGUAAUUAAGAUAUUUUGAUUUCAAUAACAAAAAUAAUACAAGAGUUUAAUCUGUGGAUUAUGUUCCUGAUCUGGAAUUCUCGGGUGCCAA | 0.424

Excerpt of the above (series 4):
Strand | RBNS enrichment (R)
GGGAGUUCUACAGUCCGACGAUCAUUGACAAAUUAAGAUGUUAAUUUUUAUCGAUGUGAUUUGUAAUUAAGAUAUUUUGAUUUCAAUAACAAAAAUAAUACAAGAGUUUAAUCUGUGGAUUAUGUUCCUGAUCUGGAAUUCUCGGGUGCCAA | 0.424
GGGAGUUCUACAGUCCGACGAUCCACAGCCCUCAAGAGGCCCCUUUGGAUAGUGGCCCUGCACGAGACUGUGCCUUGAUCAUUUCGGUGACUGAAGAGUCUGACCCCAGAGGCCUUGGGGACCCUUUCUUCUCUGGAAUUCUCGGGUGCCAA | 0.241
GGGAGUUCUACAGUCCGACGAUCUCCCGCUGCCCACCAACACCAACACACACACACCUCUAAGCUGCUGGCCGAAGAUGUCACCAAGGCCAAAGACACAGUAUUAUGAAGGUUUGGAAACCCCUCUCCUCACCUGGAAUUCUCGGGUGCCAA | 1.02
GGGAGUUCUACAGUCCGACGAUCUGAUUUUAGAUAAAGUAAGCCUAGGUGUUGUCAGCAGGCAGGCUGGGGAGGCCAGUGUUGUGGGCUUCCUGCUGGGACUGAGAAGGCUCACGAAGGGCAUCCGCAAUGUUUGGAAUUCUCGGGUGCCAA | 1.21
